Published values from different studies.
Lines come from different studies, so protocols differ. “And” joins repeats or separate records; there may be more than shown. ± gives the spread as reported.

Structure (SMILES)	cell line	test	conditions	scale	endpoint	value
Cc1ccncc1.[Cl-].[Cl-].[Ru+2].c1cc(-c2ccc3cccnc3n2)nc(-c2ccc3cccnc3n2)c1.c1ccc2cc3nc4c5cccnc5c5ncccc5c4nc3cc2c1	SK-MEL-28		light 633 nm, oxygen 18.5%	baseline: dark EC50 over light EC50	phototherapeutic index	115
CCCCCCCCN(CCC(=O)Nc1ccccc1)C(=O)c1ccoc1	progeroid mouse fibroblasts, Lmna G609G/G609G	MTT	2 µM, 72 h	baseline: vehicle-treated wild type	viability	77 ± 5%
CNC(NN=Cc1ccc([N+](=O)[O-])o1)=[S+][Au-][Cl]	CAKI-1	annexin V/PI flow cytometry	10 µM, 72 h		cell fraction ANV+/PI+	2.3 ± 0.5%
COCCCCCNc1nc(NCCCCCCN(C)C)c2cc(NC(=O)/C=C/CN(C)C)ccc2n1	MCF7	CellTiter-Glo	3.125 µM, 72 h, unit not given	baseline: DMSO-treated cells	viability	0.868 and 1.01 and 1.03
Fc1ccc(Nc2nc(NC3CCCCC3)c3cc(C(F)(F)F)ccc3n2)cc1F	transfected HEK293 cells	β-arrestin2 recruitment, negative allosteric modulator, BRET	30 min pre-incubation, β1AR ECL1/2 chimera, added: isoproterenol 1 µM	baseline: isoproterenol alone	Imax	-0.4%
O=C(Nc1cc(-c2ccnc3[nH]ccc23)c(Cl)cn1)[C@H]1CCC[C@@H](NC(=O)C(F)(F)F)C1	JeKo-1 and Mino	CellROX Green	100 nM, 6 h	baseline: untreated	cellular ROS level	increased
Cc1cnc(NC(=O)c2cccc([C@@H]3C[C@H]3NC3CCC3)c2)s1	SET-2	cell growth, CellTiter-Glo	0.1 µM, 7 d	baseline: vehicle	relative growth	103% and 102% and 98.5%
O=C(Nc1cccc(Sc2ccc3c(/C=C/c4ccccn4)n[nH]c3c2)c1)c1ccco1	Ba/F3 TEL-VEGFR3	cell growth, CCK-8			GI50	3300 nM
COc1ccc(NC(=O)c2ccc3[nH]c(-c4ccc(N(C)C)cc4)nc3c2)cn1	Y79	cell growth, CellTiter-Glo			EC50	9240 nM
COc1ccccc1-c1ccncc1C(=O)Nc1nnc(OCc2ccc(Cl)cc2)s1	PEO1 BRCA2-mutant ovarian cancer		0.25 µM, added: olaparib 0.25 µM		colony survival	25.8% and 0%
C=CC(=O)N1[C@@H](c2ccc3c(c2)OCO3)c2[nH]c3ccccc3c2C[C@H]1C(=O)NC1CC1	rat DRG neurons		0.04115 µM, 48 h, added: vincristine 40 nM		mean neuron degeneration	88.2%
O=C(Nc1ccc(Sc2ccc3c(/C=C/c4ccccn4)n[nH]c3c2)cc1)c1ccco1	Ba/F3 TEL-VEGFR3	cell growth, CCK-8			GI50	3800 nM
Cc1ncsc1-c1ccc(C(C)NC(=O)C2CC(O)CN2C(=O)C(NC(=O)CCCCCCCCCCN2CCCC(Nc3ncc(Cl)c(Nc4ccccc4S(=O)(=O)C(C)C)n3)C2)C(C)(C)C)cc1 (centres unmarked)	22Rv1	RNA-seq, item: LINC01547 mRNA	concentration not given	baseline: DMSO	log2 fold change	-2.08
COc1cc(C(=O)N2CC[C@@H](O)[C@@H](N)C2)cc2nc(-c3cc4cccnc4n3CC3CC3)n(C)c12	human neutrophils	protein citrullination, inhibitor, flow cytometry, item: citrullinated histone H3	316 nM, added: ionomycin		inhibition	17.1% and 20.9% and 41.6% and 26.6%
CCCC[C@H](N)C(=O)N[C@H]1CSCc2ccc(cc2)-c2ccc(cc2)CSC[C@@H](C(=O)N[C@H](C(N)=O)[C@@H](C)O)NC(=O)[C@H](CCCCN)NC(=O)[C@H](CCCCN)NC(=O)[C@H](CCCCN)NC(=O)[C@H](Cc2ccc(O)cc2)NC(=O)[C@H](CC(N)=O)NC(=O)[C@H](CC(C)C)NC1=O	U2OS expressing KRAS G12D	KRAS G12D multimerisation, split luciferase clustering	50 µM, 24 h		inhibition	~50%
CCN(CC)CC(=O)Nc1cccc(-n2cc(-c3ccc4ccc(-c5cn(-c6cccc(NC(=O)CN(CC)CC)c6)nn5)cc4c3)nn2)c1	RCC4	PCR array, item: TGFA	5 x IC50, 2 h, normoxia	baseline: untreated	fold regulation	-1.02 fold

Structure (SMILES)	cell line	test	conditions	scale	endpoint	value
COC(=O)c1cc(NC2=NC(=O)C(=Cc3ccc(C)cc3)S2)ccc1OC(C)=O	MCF7	GC-MS, item: Cycloserine	1 µM	baseline: DMSO	metabolite level	-0.47 fold change
CN1CCCNC(=O)c2cccc(c2)C(=O)NCCCN(C)CCCNc2cccc3c2C(=O)c2cccc(c2C3=O)NCCC1	SAS	RNA-Seq, item: WBP4 mRNA	1 µM, 6 h	baseline: untreated cells	log2 fold change	0.595
CC(C)Cc1ccc(C(C)C(=O)N[C@@H](CCCCNC(=O)CCOCCOCCOCCOCCOCCOCCNC(=O)CN2CCN(CC(=O)[O-])CCN(CC(=O)[O-])CCN(CC(=O)[O-])CC2)C(=O)Nc2cccc3c(C(=O)NCC(=O)N4CC(F)(F)C[C@H]4C#N)ccnc23)cc1.[177Lu+3] (some centres unmarked)	U-87 MG		4 h	baseline: added dose	cell uptake	12.74 ± 0.07%
COc1cc(N2CCN(C(=O)C3CCCN3)CC2)ccc1Nc1ncc(Cl)c(Nc2ccccc2P(C)(C)=O)n1 (centres unmarked)	Ba/F3 EML4-ALK	flow cytometry	concentration not given, 1 h		early apoptotic cells	3.52% and 3.23% and 3.64%
CC(C)c1ccc(N(C)c2ccc3c(c2)OCC[C@H]3CNc2cnccc2C(=O)O)cc1	GI-1	cell viability, CellTiter-Glo	7 days		IC50	287 nM
CCCCCCCCCCCC(=O)N[C@@H](CO)C[C@@H](O)c1cccc(CCCCCC)c1	HeLa	HPLC-MS-MS lipidomics, item: C18 SM and ceramide	1 µM, 24 h	baseline: SM over Cer	SM/Cer ratio	17 ,1
CNS(=O)(=O)Nc1nccc(Cc2c(C)c3ccc(Oc4ncccc4F)cc3oc2=O)c1F	Daoy	cell viability, CellTiter-Glo	7 days		IC50	> 1000 nM
COc1ccccc1C(=O)NCC(=O)Nc1ccc2[nH]nc(/C=C/c3ccccn3)c2c1	Ba/F3 TEL-VEGFR2	cell growth, CCK-8			GI50	730 nM
COc1cccc(OC)c1-c1cc(C(=O)NC2(C(=O)O)C3CC4CC(C3)CC2C4)nn1-c1ccc(C(=O)N(C)CCCN(C)CCCN(C)C(=O)[C@H](CCCCNC(=O)[C@H](CC(C)C)NC(=O)C2OC2C(=O)O)NC(=O)CN2CCN(CC(=O)[O-])CCN(CC(=O)[O-])CCN(CC(=O)[O-])CC2)cc1C(C)C.[177Lu+3] (mixture of isomers)	HT-29		concentration not given, 120 min	baseline: added activity	surface-bound fraction	3.38 ± 0.28%
Cn1ncc2cc(-c3cncc(Cl)c3N3CCC4(CCNC4=O)CC3)ccc21	LS174T	gene expression, microarray, item: PPP1R3C mRNA	concentration not given, 4 h	baseline: untreated cells	log2 fold change	1.15
CSC(=S)N/N=C(\C)c1ccc(Nc2nnc(-c3ccc(Cl)cc3)c3ccccc23)cc1	HepG2	cell growth or viability, MTT	1.25 µM, 24 h		viability	3.59%
CC1(C)C[C@@H](Nc2cccc(-c3sc(C(=O)O)c(OCC(=O)O)c3Cl)c2)CCN1S(=O)(=O)Cc1cccc(NC(=O)CN2CCC(c3ccc4c(c3)oc(=O)n4C3CCC(=O)NC3=O)CC2)c1 (some centres unmarked)	B16-F10	HTRF, item: phospho-STAT1 Tyr701	3.3 µM, added: IFN-γ	baseline: min-max normalised	pSTAT1 level	78.9% and 87.1% and 82% and 87.5% and 84.2% and 85.4%
CCOc1cncc(-c2ccc(NC(=O)C3(c4ccnc(NS(=O)(=O)C5CC5)n4)CCOCC3)nc2)n1	KG-1a	cell proliferation, CellTiter-Glo	72 h		IC50	37 nM
CO[C@@H]1[C@@H](OC(N)=O)[C@@H](O)[C@H](Oc2ccc3c(O)c(NC(=O)c4ccc(O)c(CC=C(C)C)c4)c(=O)oc3c2C)OC1(C)C	DLD-1 BRCA2-/-		200 µM, replicate 1		colony count	0.1
CCN(C(=O)c1cc(F)ccc1Oc1nncnc1N1CCC2(C1)CN([C@H](CCCN(C)CCOC)C(C)C)C2)C(C)C	CAKI-1	cell growth or viability	7 days		GI50	> 10000 nM
C[C@@H]1Cc2c([nH]c3ccccc23)[C@@H](c2c(F)cc(/C=C/C(=O)O)cc2F)N1C12CC(C1)C2	MCF7	RNA-seq, item: GREB1 mRNA	1 µM, 24 h, E2-induced gene	baseline: DMSO vehicle	log2 fold change	-3.42
